Experimental data of several laboratories.
Lines come from different studies, so protocols differ.
Organism: Staphylococcus aureus

| Structure (SMILES) | assay | system | conditions | MIC |
| --- | --- | --- | --- | --- |
| N=C(N)NCCC[C@@H]1NC(=O)[C@H](CCCNC(=N)N)NC(=O)[C@H](CCCNC(=N)N)NC(=O)[C@H](CCCNC(=N)N)NC(=O)[C@H](Cc2c[nH]c3ccccc23)NC(=O)[C@H](CCCNC(=N)N)NC(=O)[C@H](CCCNC(=N)N)NC(=O)[C@@H](N)CCCn2cc(nn2)C[C@@H](C(N)=O)NC1=O |  | ATCC 25923 | 24 h, 37 °C | 7.8 µg/mL |
| CCCCCCCCN1C(=O)/C(=N\NC(=N)N)c2cc(C)ccc21 | broth microdilution | BAA41 MRSA | 18 h, 37 °C | 6 µg/mL |
| CN1C(=O)[C@@H]2NC(=O)[C@@H]3NC(=O)[C@@H](c4ccc(O)cc4)NC(=O)[C@H](NC(=O)C(NC(=O)CCCCCN)c4ccc(O)cc4)Cc4c[nH]c5cc(ccc45)-c4cc3cc(c4O)Oc3ccc(cc3)C[C@H]1C(=O)N[C@@H](C(=O)O)c1ccc(O)c(c1)Oc1ccc2cc1 (stereo partly shown) |  | ATCC 33591 MRSA, Mueller-Hinton broth |  | 8 to 16 µg/mL |
| COc1ccc2ccc3c(c2c1)C=[N+]1C2CCCCC2[N+]2=Cc4cc(C(C)(C)C)cc(C(C)(C)C)c4[O][Au-]21[O]3.F[P-](F)(F)(F)(F)F (stereo not shown) | bacterial growth, broth microdilution | vancomycin-intermediate | 24 h | 10 µM |
| CC[C@H](C)[C@H](NC(=O)[C@H](CCCN)NC(=O)[C@H](CC(N)=O)NC(=O)[C@H](CC(C)C)NC(=O)[C@H](Cc1ccccc1)NC(=O)[C@H](CCCN)NC(=O)[C@H](CCCNC(=N)N)NC(=O)[C@H](CC(C)C)NC(=O)[C@H](CC(C)C)NC(=O)[C@H](CCCN)NC(=O)[C@H](CCCNC(=N)N)NC(=O)[C@H](CC(C)C)NC(=O)CNC(C)=O)C(=O)N[C@@H](CCCN)C(=O)N[C@@H](CCCNC(=N)N)C(N)=O | broth microdilution | multidrug-resistant |  | 3.12 µM |
| CC[S+]([O-])C1C(CO)OC(OC2C(N)CC(N)C(O)C2OC2OC(CO)C(OC3OC(CN)C(O)C(O)C3N)C2O)C(N)C1O (mixture of isomers) |  | methicillin-resistant |  | 64 to 128 µg/mL |
| CCCCCCCC(=O)NCCCC[C@@H]1NC(=O)[C@H](CCCNC(=N)N)NC(=O)[C@H](CCCNC(=N)N)NC(=O)[C@H](CCCNC(=N)N)NC(=O)[C@H](CCCNC(=N)N)NC(=O)[C@H](CCCNC(=N)N)NC1=O | broth microdilution | MRSA ATCC 43300 | 37 °C | 129 µg/mL |
| CC(C)=CCc1cc([C@@H]2CC(=O)c3ccc(O)c(CC=C(C)C)c3O2)c(O)c(CC=C(C)C)c1O |  |  |  | inactive |
| CCO[C@H]1[C@H](O)[C@@H](N)[C@@H](O[C@H]2[C@H](O[C@@H]3O[C@H](CO)[C@@H](O[C@H]4O[C@@H](CN)[C@@H](O)[C@H](O)[C@H]4N)[C@H]3O)[C@@H](O)[C@H](N)C[C@@H]2N)O[C@@H]1CO | broth microdilution | MRSA isolate AG 038 |  | 8 to 16 µg/mL |
| COc1cc(/C=N/N2C(=O)c3ccccc3NC2c2cc(OC)c(O)c(OC)c2)cc(OC)c1O (stereo not shown) | microbial growth, broth dilution | MRSA | 24 h, drug-resistant strain, clinical isolate | > 256 µg/mL |
| CC[C@H](C)[C@@H]1NC(=O)[C@@H]([C@@H](C)O)NC(=O)CNC(=O)[C@H](CC(=O)O)NC(=O)CNC(=O)[C@H](CC(=O)O)NC(=O)[C@H](CC(=O)O)NC(=O)[C@H]2CCCCN2C(=O)[C@@H](NC(=O)[C@H](CC(=O)O)NC(=O)/C=C/CCCCCCCCCC(C)C)CNC(=O)[C@@H]2CCCN2C1=O |  | MRSA USA300 | 16 h, 37 °C, with: Ca2+ 10 mM | 16 µg/mL |
| CC[C@H](C)[C@H](NC(=O)[C@@H](Cc1ccccc1)NC)C(=O)N[C@@H](CO)C(=O)N[C@H](CCC(N)=O)C(=O)N[C@@H](C(=O)N[C@H](C(=O)N[C@@H](CO)C(=O)N[C@H]1C(=O)N[C@@H](C)C(=O)N[C@@H](C2CCCCC2)C(=O)N[C@@H]([C@@H](C)CC)C(=O)O[C@H]1C)[C@@H](C)CC)[C@@H](C)CC | broth microdilution | ATCC 29213, MSSA, Mueller-Hinton broth | 16 h, 37 °C | 1 µg/mL |
| CC(C)C[C@@H]1NC(=O)[C@H](C)NC(=O)[C@H](NC(=O)[C@H](C)NC(=O)[C@@H](CCCCN)NC(=O)[C@@H](CC(C)C)NC(=O)[C@@H](N)Cc2ccccc2)[C@H](C(N)=O)OC(=O)[C@H](CC(C)C)NC1=O |  | MSSA ATCC 29213 | TFA salt | 8 µg/mL |
| CCCCCCCNS(=O)(=O)c1ccc(-n2nnc(/C(C)=N/NC(=N)N)c2C)cc1 | microbial growth, broth dilution | MRSA USA300 | drug-resistant strain | 64 µg/mL |
| CC[C@H](C)[C@H](NC(=O)[C@@H]1CC(=O)N[C@@H](CO)C(=O)N[C@@H](CC(C)C)C(=O)NCC(=O)N[C@@H](CO)C(=O)N[C@@H](CO)C(=O)N2CCC[C@H]2C(=O)N[C@@H](Cc2ccc(O)cc2)C(=O)N[C@@H](CC(N)=O)C(=O)N1)C(=O)N[C@@H](CC(C)C)C(=O)NCC(=O)N[C@@H](Cc1ccc(O)cc1)C(=O)N1CCC[C@H]1C(=O)N[C@@H](C)C(=O)N[C@@H](CC(C)C)C(=O)N[C@H](C(=O)N[C@H](C(=O)N[C@H](C(=O)N[C@@H](Cc1ccc(O)cc1)C(=O)N1CCC[C@H]1C(=O)O)[C@@H](C)CC)C(C)C)[C@@H](C)CC |  |  |  | 128 µg/mL |
| CC(CCCOC(=O)CCC[N+](C)(C)C)C1CCC2C3C(OC(=O)CCC[N+](C)(C)C)CC4CC(OC(=O)CCC[N+](C)(C)C)CCC4(C)C3CC(OC(=O)CCC[N+](C)(C)C)C12C (stereo not shown) | microbial growth | ATCCBAA44 MRSA | drug-resistant strain | 312 µg/mL |
| [Ag+].[S-]c1ccccn1.c1ccc(P(c2ccccc2)c2ccccc2)cc1.c1ccc(P(c2ccccc2)c2ccccc2)cc1 | agar dilution | methicillin-resistant | 24 h, 37 °C | 50 µg/mL |
| CC(C)[C@H](NC(=O)[C@H](CCCNC(=N)N)NC(=O)[C@H](CCCNC(=N)N)NC(=O)[C@@H](NC(=O)[C@H](C)NC(=O)[C@H](CC(N)=O)NC(=O)[C@H](CCCNC(=N)N)NC(=O)[C@@H](NC(=O)[C@H](CCCNC(=N)N)NC(=O)[C@H](CCCNC(=N)N)NC(=O)[C@@H](NC(=O)[C@@H](NC(=O)[C@H](CCCNC(=N)N)NC(=O)[C@H](CCCNC(=N)N)NC(=O)[C@H](Cc1c[nH]c2ccccc12)NC(=O)[C@H](Cc1c[nH]c2ccccc12)NC(=O)CN)[C@@H](C)O)C(C)C)C(C)C)C(C)C)C(=O)O | bacterial growth | MRSA, ESBL-positive | 18 h | 128 µg/mL |
| CC(C)CCCCCCCCCCCCc1cc(O)cc(O)c1 | microbial growth, broth dilution | USA300 | drug-resistant strain | > 64 µg/mL |

For quick reference, copied from above:
| Structure (SMILES) | assay | system | conditions | MIC |
| --- | --- | --- | --- | --- |
| CCCCCCCC(=O)NCCCC[C@@H]1NC(=O)[C@H](CCCNC(=N)N)NC(=O)[C@H](CCCNC(=N)N)NC(=O)[C@H](CCCNC(=N)N)NC(=O)[C@H](CCCNC(=N)N)NC(=O)[C@H](CCCNC(=N)N)NC1=O | broth microdilution | MRSA ATCC 43300 | 37 °C | 129 µg/mL |
| CC(C)=CCc1cc([C@@H]2CC(=O)c3ccc(O)c(CC=C(C)C)c3O2)c(O)c(CC=C(C)C)c1O |  |  |  | inactive |
